Measured values gathered from unrelated publications.
Numbered parts are unrelated; each lists some results of a single study. Changes are numbered by the printed parent chain.

Study 1
Target: Myc proto-oncogene protein, bHLH-zipper, MAX partner unstated (MYC, Homo sapiens, UniProt P01106, residues 368-449)
Chain of UniProt P01106 (368-449, looked up): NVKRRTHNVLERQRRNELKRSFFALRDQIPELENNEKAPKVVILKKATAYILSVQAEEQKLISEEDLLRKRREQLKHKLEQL
Method: protein-binding microarray
Molecule type: double-stranded DNA, one strand shown
Sample: in vitro
Concentration: not given
Notes: k-mer, scored over probes, only values ≥0.25
Reading: higher = stronger binding
`ACATCATG` gave an E-score of 0.277.
For `AGCACGCG`, the E-score was 0.462.
`ACATGGCC` has an E-score of 0.354.
For `ATGTGCCG`, the E-score was 0.375.
The E-score of `CCACACCG` is reported as 0.295.
The E-score of `CCACCACG` is reported as 0.404.
`CCGGCACG` gave an E-score of 0.372.
`CCATGCGG` gave an E-score of 0.479.

Study 2
Target: Prothrombin, mature alpha-thrombin (F2, Homo sapiens, UniProt P00734)
Method: aptamer microarray, sandwich
Molecule type: DNA with 2'F-ANA
Sample: in vitro
Concentration: 200 nM
Notes: whole 15-mer aptamer, many near background
Added: Cy3 exosite-II aptamer, 400 nM
Reading: higher = stronger binding
Strand: GGTTGGTGTGGTTGG
`2'F-ANA at 3 4 5 6 7 9`: “mean fluorescence intensity” 98.3 a.u.
For `2'F-ANA at 7 8 9 15`, “mean fluorescence intensity” read 636 a.u.
`2'F-ANA at 4 7 8 15`: “mean fluorescence intensity” 422 a.u.
`2'F-ANA at 1 2 3 4 12`: “mean fluorescence intensity” 338 a.u.
`2'F-ANA at 6 7 8 12 13`: “mean fluorescence intensity” 677 a.u.
Under “mean fluorescence intensity”, `2'F-ANA at 2 5 6 7 10 11 14 15` is recorded as 46.5 a.u.
`2'F-ANA at 2 3 4 7 10 11 13 14` — result for “mean fluorescence intensity”: 171 a.u.
Under “mean fluorescence intensity”, `2'F-ANA at 1 2 3 7 9 12` is recorded as 492 a.u.

Single results of other studies
P1: viral docking peptide; KGVKRKLFAEDSS; partner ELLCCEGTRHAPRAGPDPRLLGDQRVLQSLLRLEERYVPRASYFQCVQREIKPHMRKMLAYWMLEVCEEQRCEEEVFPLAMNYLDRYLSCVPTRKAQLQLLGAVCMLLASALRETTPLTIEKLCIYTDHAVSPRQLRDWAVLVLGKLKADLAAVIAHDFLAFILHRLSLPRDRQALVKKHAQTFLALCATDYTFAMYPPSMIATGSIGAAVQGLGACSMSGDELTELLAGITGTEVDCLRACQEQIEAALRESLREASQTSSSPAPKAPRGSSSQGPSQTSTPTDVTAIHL
Under “normalised enrichment score”, `P1 V3S` is recorded as 0.487 (CCND3, cyclin fold, Cln2 fusion (human); yeast growth competition, sequencing; yeast; weak parent motif; reference: not given, higher = stronger binding).
`KLINTLFHA`: binding “inactive” (HLA class I histocompatibility antigen, A alpha chain, allele A*25:01 (Homo sapiens, UniProt P04439); peptide-MHC binding; peptide; concentration not given).

For quick reference, copied from above (study 1):
The E-score of `CCACACCG` is reported as 0.295.
`ACATGGCC` has an E-score of 0.354.
The E-score of `CCACCACG` is reported as 0.404.
